Published values from different studies.
Every numbered part comes from another study and shows a few of its results, in no order. Values joined by “and” are separate records of one study, mostly repeats; a detail may differ.
Chain of UniProt Q13464 (whole entry, looked up): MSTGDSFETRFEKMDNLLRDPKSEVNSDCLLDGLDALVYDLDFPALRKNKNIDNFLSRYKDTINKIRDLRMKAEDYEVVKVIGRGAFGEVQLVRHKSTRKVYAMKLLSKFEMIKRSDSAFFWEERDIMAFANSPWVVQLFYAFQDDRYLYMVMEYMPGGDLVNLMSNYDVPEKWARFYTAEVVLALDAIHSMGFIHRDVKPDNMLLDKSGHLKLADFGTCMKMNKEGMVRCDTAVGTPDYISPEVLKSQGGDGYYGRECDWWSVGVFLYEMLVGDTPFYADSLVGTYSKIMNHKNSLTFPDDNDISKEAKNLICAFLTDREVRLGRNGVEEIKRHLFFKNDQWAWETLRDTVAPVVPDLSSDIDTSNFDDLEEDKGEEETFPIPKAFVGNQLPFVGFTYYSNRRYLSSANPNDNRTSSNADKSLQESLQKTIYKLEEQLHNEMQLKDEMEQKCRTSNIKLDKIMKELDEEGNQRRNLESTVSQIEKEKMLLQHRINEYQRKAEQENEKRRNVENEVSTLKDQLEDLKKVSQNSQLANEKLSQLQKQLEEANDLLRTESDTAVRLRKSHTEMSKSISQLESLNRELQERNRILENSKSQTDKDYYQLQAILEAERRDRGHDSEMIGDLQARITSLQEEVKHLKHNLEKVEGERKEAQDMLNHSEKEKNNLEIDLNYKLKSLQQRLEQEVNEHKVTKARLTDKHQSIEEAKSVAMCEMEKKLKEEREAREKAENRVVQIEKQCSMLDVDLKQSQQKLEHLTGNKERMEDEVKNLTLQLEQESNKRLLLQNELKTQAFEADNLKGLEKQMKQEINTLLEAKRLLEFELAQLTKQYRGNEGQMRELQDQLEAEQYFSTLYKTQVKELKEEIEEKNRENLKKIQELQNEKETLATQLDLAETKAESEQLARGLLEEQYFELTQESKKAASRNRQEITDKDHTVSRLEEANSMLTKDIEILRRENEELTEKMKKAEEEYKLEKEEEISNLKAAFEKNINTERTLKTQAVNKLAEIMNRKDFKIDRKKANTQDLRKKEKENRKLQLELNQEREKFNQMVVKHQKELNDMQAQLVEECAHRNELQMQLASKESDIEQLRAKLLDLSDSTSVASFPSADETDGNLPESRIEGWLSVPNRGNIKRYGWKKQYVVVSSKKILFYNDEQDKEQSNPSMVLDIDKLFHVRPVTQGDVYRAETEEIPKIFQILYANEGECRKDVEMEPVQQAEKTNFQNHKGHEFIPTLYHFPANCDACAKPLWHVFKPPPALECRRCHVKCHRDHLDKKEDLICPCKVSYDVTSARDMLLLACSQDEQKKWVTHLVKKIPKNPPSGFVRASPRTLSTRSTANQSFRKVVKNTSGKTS
Chain of UniProt O95835 (whole entry, looked up): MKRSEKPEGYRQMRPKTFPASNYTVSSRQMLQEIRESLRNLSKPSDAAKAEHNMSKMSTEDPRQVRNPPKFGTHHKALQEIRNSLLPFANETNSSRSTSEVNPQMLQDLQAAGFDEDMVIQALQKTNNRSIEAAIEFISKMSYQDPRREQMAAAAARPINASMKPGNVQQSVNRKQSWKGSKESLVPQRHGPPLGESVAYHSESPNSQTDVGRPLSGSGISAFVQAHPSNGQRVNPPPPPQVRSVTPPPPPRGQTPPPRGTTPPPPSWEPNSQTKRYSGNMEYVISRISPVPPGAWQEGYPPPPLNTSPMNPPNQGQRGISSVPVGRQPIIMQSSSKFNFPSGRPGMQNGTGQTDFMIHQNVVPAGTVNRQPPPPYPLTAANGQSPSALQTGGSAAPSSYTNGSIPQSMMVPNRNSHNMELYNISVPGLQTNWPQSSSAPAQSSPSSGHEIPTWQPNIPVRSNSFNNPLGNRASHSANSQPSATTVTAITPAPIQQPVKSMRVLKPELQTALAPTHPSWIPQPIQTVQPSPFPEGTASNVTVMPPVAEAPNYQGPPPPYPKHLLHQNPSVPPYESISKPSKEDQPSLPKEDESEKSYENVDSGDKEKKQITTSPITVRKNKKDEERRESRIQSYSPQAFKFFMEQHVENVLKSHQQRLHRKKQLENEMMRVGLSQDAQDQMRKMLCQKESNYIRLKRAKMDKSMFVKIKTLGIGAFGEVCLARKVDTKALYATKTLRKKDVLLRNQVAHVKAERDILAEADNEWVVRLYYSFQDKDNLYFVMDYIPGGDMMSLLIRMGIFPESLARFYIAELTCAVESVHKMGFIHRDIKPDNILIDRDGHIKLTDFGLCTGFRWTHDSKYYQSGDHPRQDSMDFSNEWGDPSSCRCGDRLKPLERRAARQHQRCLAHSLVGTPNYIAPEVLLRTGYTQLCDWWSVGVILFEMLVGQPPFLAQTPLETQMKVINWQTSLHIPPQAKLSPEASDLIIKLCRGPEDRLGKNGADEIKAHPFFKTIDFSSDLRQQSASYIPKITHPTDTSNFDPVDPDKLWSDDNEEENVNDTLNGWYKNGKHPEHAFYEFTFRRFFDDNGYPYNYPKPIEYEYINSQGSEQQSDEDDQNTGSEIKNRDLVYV

Series 1 — observed: enzyme activity; mode: inhibitor; tested at: 77 µM; reference: untreated
Target: DNA polymerase theta, ATPase domain (POLQ, Homo sapiens, UniProt O75417)
Chain of UniProt O75417 (whole entry, unmodified, looked up): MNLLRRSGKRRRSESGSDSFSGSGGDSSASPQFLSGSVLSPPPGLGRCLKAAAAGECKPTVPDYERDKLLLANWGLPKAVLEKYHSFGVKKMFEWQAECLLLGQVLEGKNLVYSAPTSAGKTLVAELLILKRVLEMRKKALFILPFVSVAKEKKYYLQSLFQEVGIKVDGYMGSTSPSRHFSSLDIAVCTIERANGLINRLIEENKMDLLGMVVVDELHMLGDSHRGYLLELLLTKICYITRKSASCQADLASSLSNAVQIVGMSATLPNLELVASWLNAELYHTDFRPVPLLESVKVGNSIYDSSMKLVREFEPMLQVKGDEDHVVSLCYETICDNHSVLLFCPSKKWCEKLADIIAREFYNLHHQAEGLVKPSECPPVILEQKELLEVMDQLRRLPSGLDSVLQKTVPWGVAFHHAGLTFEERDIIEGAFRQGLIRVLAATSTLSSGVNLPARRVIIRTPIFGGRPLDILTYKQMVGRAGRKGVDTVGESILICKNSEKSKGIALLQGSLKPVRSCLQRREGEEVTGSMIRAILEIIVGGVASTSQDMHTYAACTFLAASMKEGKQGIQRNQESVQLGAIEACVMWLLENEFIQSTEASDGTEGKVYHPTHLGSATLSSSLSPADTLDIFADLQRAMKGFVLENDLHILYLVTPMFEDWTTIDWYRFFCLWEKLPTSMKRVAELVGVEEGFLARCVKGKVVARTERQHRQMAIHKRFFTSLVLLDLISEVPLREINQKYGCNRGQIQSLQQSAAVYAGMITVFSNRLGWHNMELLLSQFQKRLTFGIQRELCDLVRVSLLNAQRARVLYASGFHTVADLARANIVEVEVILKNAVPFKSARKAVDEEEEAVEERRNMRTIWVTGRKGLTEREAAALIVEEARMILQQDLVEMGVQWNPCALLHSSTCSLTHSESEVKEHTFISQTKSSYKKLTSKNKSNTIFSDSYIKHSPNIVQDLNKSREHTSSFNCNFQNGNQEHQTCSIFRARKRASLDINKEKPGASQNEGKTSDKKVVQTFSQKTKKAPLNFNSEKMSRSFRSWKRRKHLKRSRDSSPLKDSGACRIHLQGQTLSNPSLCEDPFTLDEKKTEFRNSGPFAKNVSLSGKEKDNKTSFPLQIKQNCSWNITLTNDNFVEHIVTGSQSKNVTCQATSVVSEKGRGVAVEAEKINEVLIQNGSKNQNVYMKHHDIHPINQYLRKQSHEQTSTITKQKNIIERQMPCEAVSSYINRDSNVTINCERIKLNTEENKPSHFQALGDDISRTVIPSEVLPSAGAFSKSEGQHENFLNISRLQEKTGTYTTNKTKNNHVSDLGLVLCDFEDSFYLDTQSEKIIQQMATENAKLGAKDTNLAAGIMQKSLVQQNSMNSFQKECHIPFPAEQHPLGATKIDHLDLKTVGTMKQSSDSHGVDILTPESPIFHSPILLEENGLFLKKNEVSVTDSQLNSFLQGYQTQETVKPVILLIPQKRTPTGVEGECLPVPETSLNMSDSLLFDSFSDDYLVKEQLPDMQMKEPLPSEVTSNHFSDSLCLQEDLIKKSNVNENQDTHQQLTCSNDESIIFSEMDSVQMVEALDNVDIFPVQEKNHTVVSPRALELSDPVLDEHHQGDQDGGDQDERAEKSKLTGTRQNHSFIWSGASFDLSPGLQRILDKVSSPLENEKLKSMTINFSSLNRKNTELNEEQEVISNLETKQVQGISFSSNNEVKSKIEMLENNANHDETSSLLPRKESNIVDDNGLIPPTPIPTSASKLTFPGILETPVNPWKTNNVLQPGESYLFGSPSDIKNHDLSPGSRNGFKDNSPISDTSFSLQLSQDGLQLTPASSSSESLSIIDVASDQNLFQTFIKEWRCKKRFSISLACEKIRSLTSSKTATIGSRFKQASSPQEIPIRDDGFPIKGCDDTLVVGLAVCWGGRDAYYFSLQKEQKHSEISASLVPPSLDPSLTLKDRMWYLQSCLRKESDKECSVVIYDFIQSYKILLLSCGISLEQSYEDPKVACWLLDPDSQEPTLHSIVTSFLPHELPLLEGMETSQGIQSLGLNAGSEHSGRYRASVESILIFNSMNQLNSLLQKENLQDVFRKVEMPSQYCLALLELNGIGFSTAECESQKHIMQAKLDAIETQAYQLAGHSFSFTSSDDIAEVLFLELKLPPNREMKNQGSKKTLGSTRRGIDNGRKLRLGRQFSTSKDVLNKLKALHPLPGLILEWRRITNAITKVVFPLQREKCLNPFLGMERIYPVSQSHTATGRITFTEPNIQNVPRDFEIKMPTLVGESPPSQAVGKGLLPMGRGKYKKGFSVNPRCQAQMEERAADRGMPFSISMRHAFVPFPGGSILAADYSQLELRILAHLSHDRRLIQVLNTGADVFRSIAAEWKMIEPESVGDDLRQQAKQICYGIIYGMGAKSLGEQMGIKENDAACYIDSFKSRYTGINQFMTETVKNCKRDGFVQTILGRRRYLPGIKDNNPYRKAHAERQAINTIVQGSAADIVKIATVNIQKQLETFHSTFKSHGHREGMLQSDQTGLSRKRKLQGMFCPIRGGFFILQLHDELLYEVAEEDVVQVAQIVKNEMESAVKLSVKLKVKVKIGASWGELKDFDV
| SMILES | remaining activity |
| --- | --- |
| C[C@H](NC(=O)Cc1cc(F)cc(F)c1)C(=O)N[C@@H]1C(=O)N(C)c2ccccc2-c2ccccc21 | 94.1% |
| Nc1ncnc2c1nc(Sc1ccc(Cl)cc1)n2C1OC2COP(=O)(O)O[C@@H]2[C@@H]1O (stereo partly drawn) | 97.4% |
| Cc1nc(N=Nc2cc(S(=O)(=O)O)c3cc([N+](=O)[O-])cc(S(=O)(=O)O)c3c2)c(COP(=O)(O)O)c(C=O)c1O | 61.1% |
| Cn1c(=O)c2c(ncn2CCO)n(C)c1=O | 106% |
| OC[C@H]1O[C@@H](c2ccc(Cl)c(Cc3ccc(O[C@H]4CCOC4)cc3)c2)[C@H](O)[C@@H](O)[C@@H]1O | 99.5% |
| CC[C@H]1OC(=O)[C@H](C)[C@@H](O[C@H]2C[C@@](C)(OC)[C@@H](O)[C@H](C)O2)[C@H](C)[C@@H](O[C@@H]2O[C@H](C)C[C@H](N(C)C)[C@H]2O)[C@](C)(O)C[C@@H](C)[C@@H]2N[C@@H](COCCOC)O[C@H]([C@H]2C)[C@]1(C)O | 93.4% and 99.3% |
| O=Nc1c(-c2c(O)[nH]c3ccccc23)[nH]c2ccccc12 | 112% and 95% |

Series 2 — observed: binding; technique: competition with immobilised ligand; tested at: 1 µM
Compound: O=C(N[C@H]1CCCCC/C=C\C2C[C@@]2(C(=O)O)NC(=O)[C@@H]2C[C@@H](Oc3ccncc3)CN2C1=O)OC1CCCC1 (stereo partly drawn)
| target | remaining binding |
| --- | --- |
| Serine/threonine-protein kinase SIK3 (SIK3, Homo sapiens, UniProt Q9Y2K2) | 95% |
| Maternal embryonic leucine zipper kinase (MELK, Homo sapiens, UniProt Q14680) | 84% |
| Interleukin-1 receptor-associated kinase 4 (IRAK4, Homo sapiens, UniProt Q9NWZ3) | 88% |
| Tyrosine-protein kinase Fyn (FYN, Homo sapiens, UniProt P06241) | 100% |
| Receptor-type tyrosine-protein kinase FLT3, autoinhibited (FLT3, Homo sapiens, UniProt P36888) | 100% |
| Serine/threonine-protein kinase PAK 5 (PAK5, Homo sapiens, UniProt Q9P286) | 83% |
| 1-phosphatidylinositol 3-phosphate 5-kinase (PIKFYVE, Homo sapiens, UniProt Q9Y2I7) | 100% |
| Rho-associated protein kinase 1 (ROCK1, Homo sapiens, UniProt Q13464) | 100% |
| Serine/threonine-protein kinase LATS1 (LATS1, Homo sapiens, UniProt O95835) | 99% |

Series 3 — cell line: A-375; tested at: 100 µM; time: 36 h
| SMILES | viability |
| --- | --- |
| CN1CCN(c2c(F)cc3c(=O)c(C(=O)O)cn(CCF)c3c2F)CC1 | 30.2% |
| CC(C)[C@@H]1CC[C@@H](C)C[C@H]1O | 107% |
| C[C@H]1[C@H](NC(=O)/C(=N\OC(C)(C)C(=O)O)c2csc(N)n2)C(=O)N1S(=O)(=O)O | 100% |
| c1cc(CN2CCCNCCNCCCNCC2)ccc1CN1CCCNCCNCCCNCC1 | 101% |
| Cn1c(=O)cc(N2CCC[C@@H](N)C2)n(Cc2ccccc2C#N)c1=O | 91.7% |

Series 4 — observed: enzyme activity; mode: inhibitor; tested at: 0.5 µM; reference: control
Target: Aurora kinase C (AURKC, Homo sapiens, UniProt Q9UQB9)
Target sequence (Q9UQB9 1-309): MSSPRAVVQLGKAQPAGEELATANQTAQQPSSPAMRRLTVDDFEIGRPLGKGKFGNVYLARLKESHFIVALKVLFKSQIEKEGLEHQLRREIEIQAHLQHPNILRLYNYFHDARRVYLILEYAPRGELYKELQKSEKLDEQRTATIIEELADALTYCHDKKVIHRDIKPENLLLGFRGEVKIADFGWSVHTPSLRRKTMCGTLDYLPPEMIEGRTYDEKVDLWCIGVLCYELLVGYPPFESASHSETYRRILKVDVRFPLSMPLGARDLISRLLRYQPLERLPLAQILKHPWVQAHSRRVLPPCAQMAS
| SMILES | remaining activity [%] |
| --- | --- |
| CCOC(=O)c1c(C)[nH]c(/C=C2\C(=O)Nc3ccccc32)c1C | 89.1 |
| Cc1nc(-c2ccccc2)c(-c2ccncc2)o1 | 95.7 |
| CC(C)[C@H](CO)Nc1nc(Nc2cc(N)cc(Cl)c2)c2ncn(C(C)C)c2n1 | 91.9 |
| Cn1c2ccccc2c2c3c(c4c5ccccc5n(CCC#N)c4c21)CNC3=O | 55.7 |
| NCCNc1ncc(C(N)=O)c(Nc2cccc(C(F)(F)F)c2)n1 | 82.2 |
| OCC(O)CCON=C1C(c2c(O)[nH]c3ccccc23)=Nc2ccccc21 (stereo not drawn) | 43.2 |
| Cc1cccc(-c2[nH]c(C(C)(C)C)nc2-c2ccc3c(c2)OCO3)n1 | 91.4 |
| COc1ccc(CNC(=O)Nc2ncc([N+](=O)[O-])s2)cc1 | 98.4 |
| COc1ccc(C(=O)Nc2sc3c(c2C(N)=O)CCCC3)cc1OC | 97.2 |
| O=C(Nc1cccc(Nc2cc(Nc3cccc(C(F)(F)F)c3)ncn2)c1)C1CC1 | 104 |
| COc1cc2ncnc(Nc3ccc(Oc4ccccc4)cc3)c2cc1OC | 93.9 |
| O=C1NC(=O)C(c2cn(CCCO)c3ncccc23)=C1c1cnccn1 | 113 |
| N#CC(C#N)=C(N)/C(C#N)=C/c1ccc(O)cc1 | 101 |
| Cn1sc(=O)n(Cc2ccccc2)c1=O | 98.8 |
| CN(C)c1ccc(C=C2C(=O)Nc3ccccc32)cc1 | 91.1 |

Excerpt of the above (series 4):
| SMILES | remaining activity [%] |
| --- | --- |
| Cn1sc(=O)n(Cc2ccccc2)c1=O | 98.8 |
| CN(C)c1ccc(C=C2C(=O)Nc3ccccc32)cc1 | 91.1 |
